Measurements collected from several papers.
Protocols differ between the studies behind these lines.
Target: Serine/threonine-protein kinase ULK3 (ULK3, Homo sapiens, UniProt Q6PHR2)
Sequence (Q6PHR2 1-472, as in one of the studies): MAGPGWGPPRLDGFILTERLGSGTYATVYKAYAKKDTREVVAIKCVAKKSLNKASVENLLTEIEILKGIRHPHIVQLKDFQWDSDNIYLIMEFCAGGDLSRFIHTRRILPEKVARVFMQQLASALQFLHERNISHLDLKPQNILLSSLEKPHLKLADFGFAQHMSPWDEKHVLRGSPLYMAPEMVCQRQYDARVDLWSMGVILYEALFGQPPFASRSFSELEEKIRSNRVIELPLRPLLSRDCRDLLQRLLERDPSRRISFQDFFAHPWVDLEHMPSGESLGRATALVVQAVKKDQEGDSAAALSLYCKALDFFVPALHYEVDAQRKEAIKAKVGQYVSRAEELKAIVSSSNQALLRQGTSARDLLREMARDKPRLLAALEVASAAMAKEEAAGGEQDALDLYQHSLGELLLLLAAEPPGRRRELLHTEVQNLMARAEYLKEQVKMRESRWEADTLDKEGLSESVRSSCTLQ

SMILES | assay | system | setting | scale | quantity | result
COc1cc(Nc2nccc(-c3cnn4nc(OC)ccc34)n2)cc(C(F)(F)F)c1 | binding, competition with immobilised ligand | – | 1 µM | – | remaining binding | 79%
COc1ccc(NC(=O)Nc2ccc3c(c2)C(=O)N(C(C)CO)CC(C)C(CN(C)Cc2ccc4c(c2)OCO4)O3)cc1 (centres unmarked) | kinase activity, KinaseProfiler | – | 0.03 µM, species human | reference: control | remaining activity | 102%
CCn1cc(C(=O)O)c(=O)c2c(N)c(F)c(NC3CCCCC3)cc21 | kinase activity | – | 0.1 µM, with: ATP at Km | – | inhibition | 20.6%
CNC(=O)C1CCN(c2cc(C)c(F)cc2NC(=O)c2ccc(-c3cc(O)ccc3C)c(C)c2)CC1 | binding, competition with immobilised ligand | – | 1 µM | – | remaining binding | 79%
Cc1ccc(-c2c(/C=C(\C#N)C(=O)NC(C)C)n(CCCO)c3ncnc(N)c23)cc1 | cell-free assay, competition with immobilised ligand | – | 1 µM | – | remaining binding | 93%
Cc1ccc(C(=O)Nc2ccc(CN3CCN(C)CC3)c(C(F)(F)F)c2)cc1C#Cc1cnc2cccnn12 | target engagement, NanoBRET | human cells | – | – | Hill slope | 1.11
NC(=O)C[C@H]1CCc2sc3ncnc(O[C@H]4CC[C@H](N5CCOCC5)CC4)c3c21 | enzyme activity, inhibitor | – | 10 µM | – | inhibition | 2%
C=CC(=O)Nc1cc(-c2nn(C3CCN(CCNC(=O)[C@H](C)CCC45CC6CC(CC(C6)C4)C5)CC3)c3ncnc(N)c23)ccc1Oc1ccccc1 | inhibitor, KiNativ profiling | biochemical | 2 µM | – | inhibition | 2.4%
CNC(=O)C[C@H](Cc1ccc(C#N)cc1)NC(=O)c1cc(-c2ccc(CN[C@H](C)c3ccc(C)cc3)o2)ccc1Cl | enzyme activity, inhibitor | – | 1 µM | – | activity vs control | 99%
CNC1C[S+]2CC[S+]3CC[S+](C1)[Ru-4]321([N]=C=S)[n]2c3ccc(OC)cc3c3c4c(c5cc(F)c[n+]1c5c32)C(=O)NC4=O (centres unmarked) | KinomeScan | – | 0.1 µM | reference: untreated | remaining binding | 88%
C=CC(=O)N1CCCC(n2c(=O)c3ncccc3n(Cc3ccc(Oc4ccccc4)cc3)c2=O)C1 (centres unmarked) | cell-free assay, competition with immobilised ligand | – | 1 µM | – | remaining binding | 78%
C=CC(=O)N1CCc2ccc(-n3c(=O)ccc4cnc5ccc(-c6cnn(C)c6)cc5c43)cc21 | KINOMEscan | – | 1 µM | reference: DMSO control | remaining binding | 91%
Cc1cnc2nc1Nc1cccc(c1)COC/C=C/COCc1cc(ccc1OCCN1CCOCC1)N2 | – | – | concentration not given | reference: DMSO control | remaining binding | 99%
CCN1CCN(Cc2ccc(C(=O)Nc3ccc(C)c(NCc4cnc5[nH]ccc5c4OC)c3)cc2C(F)(F)F)CC1 | binding, competition with immobilised ligand | – | 1 µM | – | remaining binding | 71%

Some of these lines once more:
SMILES | assay | system | setting | scale | quantity | result
C=CC(=O)N1CCc2ccc(-n3c(=O)ccc4cnc5ccc(-c6cnn(C)c6)cc5c43)cc21 | KINOMEscan | – | 1 µM | reference: DMSO control | remaining binding | 91%
